# Assay results pooled from the literature.
# Parts stem from different laboratories: compare values within a part only. Positions count from the first letter of the parent shown.

# Block 1 — method: RNA Bind-n-Seq; molecule type: RNA; medium: in vitro; concentration: 200 nM; notes: whole 134-nt RNA, ends assumed; added: 150 mM KCl; reference: input library; direction: higher = stronger binding
# Target: Ras GTPase-activating protein-binding protein 1, full length (G3BP1, Homo sapiens, UniProt Q13283)
# UniProt Q13283, sequence (whole entry, looked up): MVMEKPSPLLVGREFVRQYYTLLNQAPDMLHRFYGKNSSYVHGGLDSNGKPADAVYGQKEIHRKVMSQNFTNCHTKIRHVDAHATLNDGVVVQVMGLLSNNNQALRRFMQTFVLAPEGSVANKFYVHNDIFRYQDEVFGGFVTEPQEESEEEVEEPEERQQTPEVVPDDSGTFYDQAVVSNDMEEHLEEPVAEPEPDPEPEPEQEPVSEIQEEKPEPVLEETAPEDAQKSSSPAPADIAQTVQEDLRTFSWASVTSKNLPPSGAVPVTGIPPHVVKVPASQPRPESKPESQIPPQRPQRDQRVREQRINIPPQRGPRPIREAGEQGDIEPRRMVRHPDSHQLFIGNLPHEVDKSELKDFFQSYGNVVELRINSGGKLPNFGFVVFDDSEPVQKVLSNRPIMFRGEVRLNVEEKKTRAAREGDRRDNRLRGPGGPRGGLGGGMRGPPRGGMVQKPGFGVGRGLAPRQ
# Constant ends, left off below: GGGAGUUCUACAGUCCGACGAUC … UGGAAUUCUCGGGUGUCAAGG
Strand,log2 enrichment
UUUCAGGGGAGCUCUUUGCUCAGGCCCCGGUGGAUCAGUUUCCUGGCACAGCUGUGGAGAGUGUGACGGAUUCCAGCAGGUACUUCGUGA,-1.49
AGUCCUGUGCUACACAUCGUAUGUACCGAAUCAAAUUUAAACCCAAACCCCCCCAAAAAAGUAUUAUGUUACGCCGUUCGGAUCUGCACU,-0.334
CACAGACAACACGCACCCACACAGACACAGAGGGAAGGGGUUGGGAUGGGGACAGGAAACACAGCAGGGCGGGGUAGGACCCCAGCCCCU,1.81
GCAGGAAGUAAAAACAAAUGGAAAUGCUUCGGAAAGUGGCAGGGGUGGGGGUUGCUAAGGAAAGGGUGGGAUGGGAGUGGGUAAAGAGUU,0.892
UGCGUGCUUGUGUCCUGGAGCUGGAAGAGCGGCUGAGCACGCAGGAGGGCUUGGUGCAAGAGCUUCAGAAAAAACAGGUGGAAUUGCAGG,-0.676
AGUCCUGUGCUACACAUCGUAUGUACCGAAUCGGGCCCCGGGGCCCCGGCCCCGGGGAAAGUAUUAUGUUACGCCGUUCGGAUCUGCACU,-1.23
GCAGGAAGUAAAAACAAAUGGAAAUGCUUCGGAUAGUGGCAUGGGUGGGGGUUGCUAAGGAAAGGGUGGGAUGGGAGUGGGUAAAGAGUU,0.762
CAAGUCCUGUGCUACACAUCGUAUGUACCGAAUCAAAUUUAAAUUUAAAUUUAAAAAAGUAUUAUGUUACGCCGUUCGGAUCUGCACUUC,-1.29
CCUCAAGUCCUGUGCUACACAUCGUAUGUACCGAAUCGGUUUUUGGUGGAGGAAAGUAUUAUGUUACGCCGUUCGGAUCUGCACUUCCAG,0.0204

# Block 2 — method: DHFR PCA, deep sequencing; medium: yeast; added: (+)-ABA 17 µM; reference: wild-type fitted maximum; direction: higher = stronger binding
# Target: ABI1, truncated, D143A, DHFR fusion (Arabidopsis thaliana)
# Notes: methotrexate growth selection, single substitutions
# Starting sequence: PYL1, truncated, DHFR fusion (Arabidopsis thaliana); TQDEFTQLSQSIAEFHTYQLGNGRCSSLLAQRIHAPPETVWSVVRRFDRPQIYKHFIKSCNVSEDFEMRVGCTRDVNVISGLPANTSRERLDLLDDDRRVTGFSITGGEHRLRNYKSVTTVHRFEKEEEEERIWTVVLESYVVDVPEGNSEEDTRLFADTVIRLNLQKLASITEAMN
Change,relative binding score
V100I,86.6%
R45C,18.5%
A30N,56.3%
D153S,8.79%
N77M,85.5%
E127F,78.3%
S26M,64.4%
T135E,-3.78%
E151L,77%
D144C,29.7%
N85P,3.57%
R99F,99.7%
E64L,71.6%

# Block 3 — target: CCNE2, cyclin fold, Cln2 fusion (human); method: yeast growth competition, sequencing; medium: yeast; notes: strong parent motif; reference: not given; direction: higher = stronger binding
# Starting sequence: RBL2 docking peptide (human); STTRRRLFVENDS
Change,normalised enrichment score
STTWRRLFVENDS [R4W],0.65
STTRRRLFVEKDS [N11K],4.33
STTRRRLFVENDE [S13E],4.81
QTTRRRLFVENDS [S1Q],4.89
VTTRRRLFVENDS [S1V],3.89
STTRRALFVENDS [R6A],0.476
STTRRRLFVESDS [N11S],3.97
STTRRRVFVENDS [L7V],0.0617
STDRRRLFVENDS [T3D],0.039
SFTRRRLFVENDS [T2F],3.79
CTTRRRLFVENDS [S1C],5.02
DTTRRRLFVENDS [S1D],3.68
STTRRRLFVENWS [D12W],2.94

# Block 4 — method: RNA Bind-n-Seq; molecule type: RNA; medium: in vitro; concentration: 365 nM; reference: no-protein control; direction: higher = stronger binding
# Target: RNA binding protein fox-1 homolog 2, RRM domain, GST-SBP tag (RBFOX2, Homo sapiens, UniProt O43251-10, residues 100-194)
# Notes: natural RNA segment, single round, ends assumed
# Constant ends, left off below: GGGAGUUCUACAGUCCGACGAUC … UGGAAUUCUCGGGUGCCAA
# Target sequence (chain): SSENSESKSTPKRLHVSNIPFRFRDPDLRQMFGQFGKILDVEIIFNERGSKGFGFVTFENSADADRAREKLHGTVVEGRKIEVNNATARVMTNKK
Strand,RBNS enrichment (R)
GGGUUAGGGAUGGGCGCUUUCCUCUCUGGUUGUGAACGAAAGGAAGGAACAUCUUUCUAUGGCUAACAAAAACUAAAGGGGAAGUGAGGAAACAGGAAGAAGUAUGGUGG,0.867
ACACACACACACACGGUUUGAUGAAUUUCCAAACCACGGCUACUCCUUUUUUAAAAACGGGUUUGAACUCCUGUUUAGCCAAGAGUGAUCUUGAGCUGGUCUCCUGCCUC,0.897
GAUCAUACCUAAGAGGUUAGGAAAUGGUGCCAUUCCCACCUUAGAGUGCUACAUAGGUGCUUUGGGCGUAUGUAACAUUAGUGUCCUUCCUUGAAGCCACAAGCUAGUUU,0.325
AAAUUGAAAAAGACAUGUAGAAUUUGUUGUCUUCUGCUAAGCACGAAAAGUUAAGAUAUCUGCUUACAUUGAUUUUGUAGACACAUUAAGUCAAGAUUUGGAAUUUAAGU,1.3
UACUGGAUGAGCAAGGAGCAUGCUUCCUUUGGGACAUUCUUACAGCAGGGUGUCUCUCCAACAGCCCGACAGGCCUCAUCUUUUUGGUUGGAUACCUUUGAACUCCAUGG,2.68
GCCGCAGAGUGGCCCGCUGGGACUCCCAUGUGCUGCCGUCUGAUGUGCUCAGAUGGGCUCAUCGUUGGUUCGUUUUUACUGUAUAUUUAUAGUAAUAAAAUCAUGCAGCA,0.317
GGUGAUGAACAGGAGCCUAUUUCAGUGAAGGAGGAGCCAUGGGCUUCCCAGAGUUCUGGCAGGCAUCCGCACCAUGGGGAAGCUUCAUCUACCAAUGAUUGUUUAGCUAG,0.431
CUUUCUCAAAGAAAUAUUAAGCAUGUUUUGUUGCUCAGUGUUUUUGUGAAUUGCUUGGUUGUAAUUAAAUUCUGAGCCUGAUAUUGAUAUGGUUUUAAGAAGCAGUUGUA,17.9

# Excerpt of the above (block 3):
Change,normalised enrichment score
STTRRRLFVESDS [N11S],3.97
STTRRRVFVENDS [L7V],0.0617
STDRRRLFVENDS [T3D],0.039
SFTRRRLFVENDS [T2F],3.79
CTTRRRLFVENDS [S1C],5.02
